Measurements of several laboratories.
Compare with care: the assays were run in different laboratories. Values joined by “and” are separate records of one study, mostly repeats; a detail may differ.
Cell line: LOX IMVI

SMILES	effect on	technique	tested at	time	setting	measurement	value
COc1ccc(OC)c(-c2nc3ccc(-c4nc5ccc(N6CCN(C)CC6)cc5[nH]4)cc3[nH]2)c1	cell growth	NCI-60 SRB	10 µM	48 h		growth percent	98%
CCn1cc(-c2cc(Cn3ccoc3=N)cc3c2CCN([C@@H](C)c2cc(OC)ccn2)C3=O)c(C(F)(F)F)n1	cell growth			120 h		EC50	0.00581 µM
O=c1ccn(Cc2cn(-c3c4ccccc4nc4ccccc34)nn2)c(=O)[nH]1		NCI60 single dose	10 µM			growth	74.2%
NNc1nc(-c2ccc(Cl)cc2)c2c(NC(=O)c3ccccc3)nnc-2[nH]1		NCI60 SRB	10 µM			growth percent	114%
Cc1cc(=O)[nH]c(=O)n1Cc1cn(-c2c3ccccc3nc3ccccc23)nn1		NCI60 single dose	10 µM			growth	15.2%
CCCN1CCN(c2ccc3nc(-c4ccc5nc(-c6cc(OC)ccc6OC)[nH]c5c4)[nH]c3c2)CC1	cell growth	NCI-60 SRB	10 µM	48 h		growth percent	-83.3%
CC(=O)O[C@H]1C(=O)[C@@]2(C)[C@H]([C@H](OC(=O)c3ccccc3)[C@]3(O)C[C@H](OC(=O)[C@H](O)[C@@H](NC(=O)c4ccccc4)c4ccccc4)C(C)=C1C3(C)C)[C@]1(OC(C)=O)CO[C@@H]1C[C@@H]2O		sulforhodamine B				TGI	1 µM
CCCCN1CCN(c2ccc3[nH]c(-c4ccc5[nH]c(-c6ccc(OCC)cc6)nc5c4)nc3c2)CC1	cell growth	NCI-60 SRB	10 µM	48 h		growth percent	-81%
Cc1cc(C)n(C(=S)[S][Au][PH](CCCCCC[PH]([Au][S]C(=S)n2nc(C)cc2C)(c2ccccc2)c2ccccc2)(c2ccccc2)c2ccccc2)n1	cell growth	NCI-60 screen			melanoma	log10 TGI	> -4
Cc1cc(-c2ccccc2)n(-c2nc(-c3ccc(Cl)cc3)c3c(NC(=O)c4ccccc4)nnc-3[nH]2)n1		NCI60 SRB	10 µM			growth percent	99.2%
CCCCN1CCN(c2ccc3nc(-c4ccc5nc(-c6cc(OC)ccc6OC)[nH]c5c4)[nH]c3c2)CC1	cell growth	NCI-60 SRB	10 µM	48 h		growth percent	96.5%
Cc1cc(C)n(-c2nc(-c3ccc(Cl)cc3)c3c(NC(=O)c4ccccc4)nnc-3[nH]2)n1		NCI60 SRB	10 µM			growth percent	102%
C#C[C@@]1(O)[C@@H](CO)O[C@@H](n2ccc3c(N)ncnc32)[C@@H]1O	cell growth	SRB				TGI	2.05 µM
O=C(Nc1nnc2n3c(nc(-c4ccc(Cl)cc4)c1-2)SCC3=O)c1ccccc1		NCI60 SRB	10 µM			growth percent	109%
CCCCN1CCN(c2ccc3[nH]c(-c4ccc5[nH]c(-c6ccc(C(F)(F)F)cc6)nc5c4)nc3c2)CC1	cell growth	NCI-60 SRB	10 µM	48 h		growth percent	-89.5%
CCCC(CCC)C(=O)OCc1cn(-c2c3ccccc3nc3ccccc23)nn1		NCI60 single dose	10 µM			growth	92.6%
CCOc1ccc(-c2nc3cc(-c4nc5cc(N6CCN(C)CC6)ccc5[nH]4)ccc3[nH]2)cc1OCC	cell growth	NCI-60 SRB	10 µM	48 h		growth percent	-74.5%
O=C1NC(c2ccccc2)(c2ccccc2)C(=O)N1Cc1cn(-c2cc3ccccc3oc2=O)nn1		NCI60 single dose	10 µM			growth	92.2%
O=C(Nc1nnc2n3c(=S)[nH][nH]c3nc(-c3ccc(Cl)cc3)c1-2)c1ccccc1		NCI60 SRB	10 µM			growth percent	111%
COc1cnc2cccc(N3CCc4c(cc(Cn5ccnc5C)cc4-c4cn(C)nc4C(F)(F)F)C3=O)c2c1	cell growth			120 h		EC50	4.32 µM
O=C(Nc1nnc2n3c(Cc4ccccc4)n[nH]c3nc(-c3ccc(Cl)cc3)c1-2)c1ccccc1		NCI60 SRB	10 µM			growth percent	120%
C#C[C@@]1(O)[C@@H](CO)O[C@@H](n2cc(Cl)c3c(N)ncnc32)[C@@H]1O	cell growth	SRB				TGI	0.226 µM and 0.284 µM

Repeated from above:
SMILES	effect on	technique	tested at	time	setting	measurement	value
CCCCN1CCN(c2ccc3nc(-c4ccc5nc(-c6cc(OC)ccc6OC)[nH]c5c4)[nH]c3c2)CC1	cell growth	NCI-60 SRB	10 µM	48 h		growth percent	96.5%
Cc1cc(C)n(-c2nc(-c3ccc(Cl)cc3)c3c(NC(=O)c4ccccc4)nnc-3[nH]2)n1		NCI60 SRB	10 µM			growth percent	102%
